Measured values from different studies.
Lines come from different studies, so protocols differ. Values joined by “and” are separate records of one study, mostly repeats; a detail may differ. ± marks the error that the study gave.

Under “treatment-emergent adverse events”, COc1cc(N2CCC(N3CCN(C)CC3)CC2)ccc1Nc1ncnc(Nc2ccccc2S(=O)(=O)C(C)C)n1 is recorded as 5 number (percent) (refers to: Rash; Japanese patients with solid tumours; oral, dose not given, all grades).
C[C@@H](NC(=O)N1C(=O)[C@H](Cc2ccnc(N)c2)[C@H]1C(=O)O)C1CCCCC1 — result for “incidence of moderate AEs”: 0% (healthy adult Chinese volunteers; continuous intravenous infusion, 0.3 mg/kg/h, 5-day infusion, CTCAE 5.0 grading).
Under “serum alanine aminotransferase”, [O-][S+]1CCc2nc(N3CCC(c4ncc(Cl)cn4)CC3)nc(NC3(CO)CCC3)c21 (stereo not shown) is recorded as 19.3 U/L (healthy male humans; 48 mg single dose, after last dose).
For Nc1ccn([C@@H]2O[C@H](CO)[C@@H](O)C2(F)F)c(=O)n1, the MTD was 50 mg/kg (healthy tumour-free C57BL/6 mice; every 3 days).
CC1(C)C(C=C(Cl)Cl)C1C(=O)OC(C#N)c1ccc(F)c(Oc2ccccc2)c1 (stereo not shown): “enzyme contribution to clearance” 0.66% (refers to: CYP2C8; human, age 1 year, recombinant human CYP2C8; 0.1 µM).
Nc1ncnc2c1ncn2[C@@H]1O[C@@H]2COP(=O)([S-])O[C@@H]3[C@H](O)[C@@H](COP([O-])(=S)O[C@H]2[C@H]1O)O[C@H]3n1cnc2c(N)ncnc21.[Na+].[Na+] (stereo partly shown) gave a monocyte percentage of 5.5 ± 6.7% (non-tumor-bearing mice, blood; intravenous, 1 mg/kg, toxicity study).
With CC(C)[C@@H]1NC(=O)CNC(=O)[C@H](CC(N)=O)NC(=O)[C@H](CCCNC(=N)N)NC(=O)[C@H](Cc2ccc(O)cc2)NC(=O)[C@H](C(C)C)NC(=O)[C@@H](NC(=O)[C@@H](NC(=O)[C@H](CC(N)=O)NC(=O)[C@H](Cc2c[nH]c3ccccc23)NC(=O)[C@H](C)NC(=O)[C@H](Cc2ccccc2)NC(=O)CN)C(C)C)CSSC[C@@H](C(=O)N[C@@H](Cc2cnc[nH]2)C(=O)N[C@@H](CCCNC(=N)N)C(=O)N[C@@H](CCCNC(=N)N)C(=O)N[C@@H](C)C(=O)N[C@@H](CC(N)=O)C(N)=O)NC(=O)[C@H](C(C)C)NC(=O)[C@H](CCCNC(=N)N)NC1=O the globulin was 18.9 ± 0.21 g/L (ICR mouse, blood; intramammary, 10 mg/kg, day 5, 3 d dosing).
COc1ccc(CCC2CCCC(CCc3ccc(OC)cc3)N2C[C@@H](O)CO)cc1.Cl (stereo in doubt): “resting membrane potential change” 1.4 ± 1.3 mV (rabbit Purkinje fibres; 0.3 µM, cycle length 1 s; baseline: baseline).
For Clc1ccc(-c2ccccc2)cc1, the potassium was 7 ± 3 mmol/L (Sprague-Dawley rats, female, serum; inhalation, 23 µg/rat, 2 h after exposure).
Under “serious adverse events”, O=C(c1ccc(F)c(F)c1Nc1ccc(I)cc1F)N1CC(O)([C@@H]2CCCCN2)C1 is recorded as 33% (human patients; oral, dose not given, dose escalation, tablet).
CN1CCN(S(=O)(=O)c2cc([N+](=O)[O-])ccc2N(CCOS(C)(=O)=O)CCOS(C)(=O)=O)CC1 has a hemoglobin of 142 g/L and 162 g/L and 158 g/L (NOD/SCID mouse, naive, blood; intraperitoneal, 12.5 mg/kg, week 4).
COc1ccc2nc3cc(Cl)ccc3c(Nc3cc(CN4CCCC4)c(O)c(CN4CCCC4)c3)c2n1 gave a monocyte count of 0.22 10⁹/L (mouse, blood; intraperitoneal, 57 mg/kg).
For NC(=O)[C@H]1CCN(c2ncnc(N)c2F)C[C@@H]1N1CCC[C@@H](Nc2cc(Cl)cc(C(F)(F)F)c2)C1=O, “grade ≥3 neutropenia” read 0% (B-cell malignancy patients; oral, 82 mg twice daily, dose).
Oc1c(Cl)cc2c(c1Cl)Oc1cc(Cl)c(Cl)cc1O2: “milk fat partition ratio” 24.4 (cow whole milk; 20 nM; baseline: milk fat over skim milk).
N#C[C@H](O[C@@H]1O[C@H](CO[C@@H]2O[C@H](CO)[C@@H](O)[C@H](O)[C@H]2O)[C@@H](O)[C@H](O)[C@H]1O)c1ccccc1 has a Tmax of 10.2 ± 3.6 min (Sprague Dawley rat, plasma; oral, 10 g lyophilized powder/kg, high dose).
With Cc1[nH]c(C)c(S(=O)(=O)Nc2ccc(S(F)(F)(F)(F)F)cc2)c1C(=O)N1CCC(F)(F)C1 the AUC(0-inf) was 24300 ng·h/g (mice, brain; intraperitoneal, 40 mg/kg).
O=S(=O)(Nc1ccccc1)c1ccc(NC(=S)Nc2ccccc2)cc1 — result for “relative organ weight”: 4.63% (female mice, liver; oral, 80 mg/kg daily 14 days; baseline: body weight).
CN1CC[C@@H](c2c(O)cc(O)c3c(=O)cc(-c4ccc(C(F)(F)F)cc4Cl)oc23)[C@@H]1CO: “patients with adverse event” 0% (refers to: Lymphopenia; relapsed B-cell malignancies or AML; oral, 100 mg, grade 3-4, continuous dosing).
C/C(=N\C#N)N(C)Cc1ccc(Cl)nc1 gave a concentration of 0.05 mg/kg dry soil (soil; 28 days, nominal 1.1).
The tissue uptake of CC[C@H](C)[C@H](NC(=O)[C@H](Cc1ccccc1)NC(=O)[C@H](CCC(=O)O)NC(=O)[C@H](CCCNC(=N)N)NC(=O)[C@H](C)NC(=O)[C@H](C)NC(=O)[C@H](CCC(N)=O)NC(=O)[C@H](CCC(=O)O)NC(=O)[C@H](CCC(=O)O)NC(=O)[C@H](CC(C)C)NC(=O)[C@H](Cc1ccc(O)cc1)NC(=O)[C@H](CO)NC(=O)[C@H](CO)NC(=O)[C@@H](NC(=O)[C@H](CC(=O)O)NC(=O)[C@H](CO)NC(=O)[C@@H](NC(=O)[C@H](Cc1ccccc1)NC(=O)[C@@H](NC(=O)CNC(=O)[C@H](CCC(=O)O)NC(=O)[C@H](C)NC(=O)CCc1cnc[nH]1)[C@@H](C)O)[C@@H](C)O)C(C)C)C(=O)N[C@@H](C)C(=O)N[C@@H](Cc1c[nH]c2ccccc12)C(=O)N[C@@H](CC(C)C)C(=O)N[C@H](C(=O)N[C@@H](CCCNC(=N)N)C(=O)NCC(=O)N[C@@H](CCCNC(=N)N)C(=O)N[C@@H](CCCCNC(=O)COCCOCCNC(=O)COCCOCCNC(=O)CC[C@H](NC(=O)CCCCCCCCCCCCCCCCC(=O)O)C(=O)O)C(=O)NCC(=O)NCC(=O)N[C@@H](CO)C(=O)N[C@@H](CCCCNC(=O)[C@H](CCCCNC(=O)[C@H](CCCCNc1c(NCCCCCN(O)C(=O)CCC(=O)NCCCCCN(O)C(=O)CCC(=O)NCCCCCN(O)C(C)=O)c(=O)c1=O)Nc1c(NCCCCCN(O)C(=O)CCC(=O)NCCCCCN(O)C(=O)CCC(=O)NCCCCCN(O)C(C)=O)c(=O)c1=O)NC(=O)[C@H](CCCCNc1c(NCCCCCN(O)C(=O)CCC(=O)NCCCCCN(O)C(=O)CCC(=O)NCCCCCN(O)C(C)=O)c(=O)c1=O)Nc1c(NCCCCCN(O)C(=O)CCC(=O)NCCCCCN(O)C(=O)CCC(=O)NCCCCCN(O)C(C)=O)c(=O)c1=O)C(=O)O)C(C)C [zirconium-89 labelled] is reported as 0.465 %ID/g and 0.384 %ID/g (ex vivo gamma counting; Sprague-Dawley rat, male, blood; intravenous, 1 nmol, 24 h).
CC[C@H](C)CCCCC(=O)N[C@@H](CCN)C(=O)N[C@H](C(=O)N[C@@H](CCN)C(=O)N[C@H]1CCNC(=O)[C@H]([C@@H](C)O)NC(=O)[C@H](CCN)NC(=O)[C@H](CCN)NC(=O)[C@H](CC(C)C)NC(=O)[C@@H](Cc2ccccc2)NC(=O)[C@H](CCN)NC1=O)[C@@H](C)O has a clearance of 1.17 L/h (human, critically ill, AKI, plasma; intravenous, dose not given, mean).
N[C@@H]1c2ccccc2OC12CCN(c1cnc3c(N4CCCc5ncccc54)n[nH]c3n1)CC2 — result for “incidence of any serious TEAE”: 28% (patients advanced metastatic solid tumours; oral, 60 mg once daily, pooled RP2D cohorts).
For CCc1ccc(CC/C=C/c2ccc3c(c2)C(=O)CC3)cc1, the potassium was 4.28 mmol/L (Sprague-Dawley rat, female, serum; oral, 30 mg/kg/day, 14 days).
For C1=Cc2nc1cc1ccc([n-]1)c(-c1ccccc1)c1nc(cc3ccc([n-]3)c2-c2ccccc2)C=C1.CC(=O)[O-].[Mn+3], “mean plasma concentration” read 53 ng/mL (LC-MS/MS; Sprague-Dawley rat, plasma; oral gavage, dose not given, 60 min).
O=C(Nc1ccccc1)C1CCN(C(=O)Oc2cccnc2)CC1 — result for “adverse event Dizziness”: 14.3% (healthy women; oral, 20 mg, 7 days).
CCN1[C@@H](C(=O)NC23CCC(C(=O)O)(CC2)CC3)[C@H](c2cccc(Cl)c2F)[C@]2(C(=O)Nc3cc(Cl)ccc32)C12CCCCC2 gave an anorexia of 4.8% (advanced solid tumour patients; oral, dose not given).
Under “patients with grade ≥3 TEAE”, O=C1Nc2cc3[nH]nc(-c4ccncc4)c3cc2CN1Cc1ccccc1 is recorded as 7% (refers to: Anemia; patients with advanced solid tumours; intravenous, dose not given).
With COc1ncccc1-c1cnn2ccc(N3CCN(C(=O)OC(C)C)CC3)nc12 the drug concentration was 90 nM (rat, STZ model, plasma; oral, 1 mg/kg, 240 min).
COc1ccc(-c2c(-c3ccc(C#N)c(F)c3)nc(N3CCC(N)CC3)n(C)c2=O)cc1F: “serious adverse event incidence” 2% (refers to: bone pain; human patients; oral, dose not given, dose escalation, NG).
Cn1c(-c2ccc(C(N)=O)cc2F)nnc1C(C)(C)Oc1c(F)cc(Cl)cc1F: “subjects with drug-related TEAE” 0% (human; oral, 60 mg, single ascending dose).
C=CC(=O)N1CC[C@H](n2nc(C#Cc3cc(OC)cc(OC)c3)c3c(N)ncnc32)C1 — result for “decreased appetite, grade ≥3”: 100% (human patients; oral, dose not given, QD regimen, adverse drug reaction, added: ferric citrate hydrate).
For O=C(O)CCS(=O)(=O)O, the plasma concentration was 362 ng/mL (human; oral, 265 mg twice daily, 8 h post-dose, week 65).
With CC(=O)c1c(C)c2cnc(Nc3ccc(C4CCN(CCS(C)(=O)=O)CC4)cn3)nc2n(C2CCCC2)c1=O the Vd was 645 L (human, plasma; oral, 50 mg twice daily, day 1, single dose, added: letrozole).
COc1cc2c(Oc3ccc4[nH]c(C)cc4c3F)ccnc2cc1OCC1(N)CC1 — result for “grade 3 Neutropenia”: 0% (paediatric recurrent refractory sarcoma; 8 mg/kg).
NCCCC[C@@H]1NC(=O)[C@@H](Cc2c[nH]c3ccccc23)NC(=O)[C@H](c2ccccc2)NC(=O)[C@@H]2C[C@@H](OC(=O)NCCN)CN2C(=O)[C@H](Cc2ccccc2)NC(=O)[C@H](Cc2ccc(OCc3ccccc3)cc2)NC1=O — result for “subjects with adverse event Vomiting”: 11% (healthy human volunteers; 600 µg twice daily).
Cc1cccc(Cn2nc(C3CC3)c3c(NC(=O)c4cnc5cc(OCCN6CCN(C)CC6)ccn45)cccc32)n1 — result for “all-cause adverse events”: 33.3% (CTCAE v4.03, refers to: AST increased; pancreatic ductal adenocarcinoma patients; oral, dose not given, added: pembrolizumab IV every 3 weeks).
Under “drug-related Headache incidence”, C[C@]1(CO)Cc2ncn(-c3ccc(C#N)c(Cl)c3)c2C(=O)O1 is recorded as 0% (Japanese subjects; 3 mg single dose).
N=C(N)NCCC[C@@H](NC(=O)[C@@H](N)Cc1ccccc1)C(=O)N[C@@H](Cc1ccccc1)C(=O)N[C@@H](CCCCN)C(N)=O: “mean fraction excreted in urine” 2.22% (LC-MS; human; 15 mg, 23.83 h).
C=CCNc1c(O)cc2c(O)c1C[C@@H](C)C[C@H](OC)[C@H](O)[C@@H](C)/C=C(\C)[C@H](OC(N)=O)[C@@H](OC)/C=C\C=C(/C)C(=O)N2: “treatment-emergent adverse events” 33% (refers to: first-degree AV block; patients with unresectable or metastatic GIST, STS or other tumours; intravenous, 225 mg/m^2).
CO[C@H]1C[C@@H]2CC[C@@H](C)[C@@](O)(O2)C(=O)C(=O)N2CCCC[C@H]2C(=O)O[C@H]([C@H](C)C[C@@H]2CC[C@@H](OC(=O)NCCOCCOCCOCCOCCOCCOCCOCCOCCC(=O)N3CCc4cc(Cn5nc(-c6ccc7oc(N)nc7c6)c6c(N)ncnc65)ccc4C3)[C@H](OC)C2)C[C@@H](O)[C@H](C)/C=C(\C)[C@@H](O)[C@@H](OC)C(=O)[C@H](C)C[C@H](C)/C=C/C=C/C=C/1C gave a vomiting incidence of 50% (patients with advanced solid tumours; intravenous, 6 mg weekly, any grade).

A few entries again:
O=C(Nc1ccccc1)C1CCN(C(=O)Oc2cccnc2)CC1 — result for “adverse event Dizziness”: 14.3% (healthy women; oral, 20 mg, 7 days).
CCN1[C@@H](C(=O)NC23CCC(C(=O)O)(CC2)CC3)[C@H](c2cccc(Cl)c2F)[C@]2(C(=O)Nc3cc(Cl)ccc32)C12CCCCC2 gave an anorexia of 4.8% (advanced solid tumour patients; oral, dose not given).
Under “patients with grade ≥3 TEAE”, O=C1Nc2cc3[nH]nc(-c4ccncc4)c3cc2CN1Cc1ccccc1 is recorded as 7% (refers to: Anemia; patients with advanced solid tumours; intravenous, dose not given).
With COc1ncccc1-c1cnn2ccc(N3CCN(C(=O)OC(C)C)CC3)nc12 the drug concentration was 90 nM (rat, STZ model, plasma; oral, 1 mg/kg, 240 min).
